Experimental data gathered from unrelated publications.
Parts stem from different laboratories: compare values within a part only.

Study 1 — technique: aptamer microarray, sandwich; molecule type: DNA with 2'F-ANA; sample: in vitro; tested at: 200 nM; together with: Cy3 exosite-II aptamer, 400 nM; reading: higher = stronger binding; measurement: mean fluorescence intensity; oligonucleotide: GGTTGGTGTGGTTGG
Target: Prothrombin, mature alpha-thrombin (F2, Homo sapiens, UniProt P00734)
Notes: whole 15-mer aptamer, many near background
2'F-ANA at 1 4 5 12: 119 a.u.
2'F-ANA at 1 3 4 5 6 12 13 14 15: 92.4 a.u.
2'F-ANA at 6 8 9 10 12 13 14: 111 a.u.
2'F-ANA at 1 3 4 7 8 10 11 12 13 15: 70.9 a.u.
2'F-ANA at 1 3 4 5 8 9 10 12 13 14: 65.8 a.u.
2'F-ANA at 4 5 7 11 14 15: 62.1 a.u.
2'F-ANA at 3 7 9 11 12 15: 1260 a.u.
2'F-ANA at 1 2 7 8 9 12 14 15: 74.7 a.u.
2'F-ANA at 1 2 3 4 6 7 10 12 13 15: 61.8 a.u.
2'F-ANA at 1 2 8 9 12 13 15: 302 a.u.
2'F-ANA at 1 2 5 6 8 10 11 13 14 15: 53.6 a.u.
2'F-ANA at 1 3 4 5 12 13 14 15: 46.2 a.u.
2'F-ANA at 1 5 10 11 13: 57.4 a.u.
2'F-ANA at 1 3 5 6 7 9 10 11 14: 50 a.u.
2'F-ANA at 1 3 5 7 8 11 12 15: 126 a.u.
2'F-ANA at 1 2 6 7 8 12 15: 394 a.u.
2'F-ANA at 2 6 7 8 10 11 12 15: 133 a.u.
2'F-ANA at 3 6 8 9 10 11 13 15: 401 a.u.
2'F-ANA at 2 3 4 5 6 8 10 12 15: 60.4 a.u.

Study 2 — technique: protein binding microarray; molecule type: double-stranded DNA, one strand shown; sample: in vitro; tested at: not given; reference: not given; reading: higher = stronger binding; measurement: E-score
Target: Histone acetyltransferase KAT6A, both winged helices, GST fusion (KAT6A, Homo sapiens, UniProt Q92794, residues 1-181)
Notes: 8-mer, flanks averaged, mean of 2 arrays, mostly near background
Residues (chain): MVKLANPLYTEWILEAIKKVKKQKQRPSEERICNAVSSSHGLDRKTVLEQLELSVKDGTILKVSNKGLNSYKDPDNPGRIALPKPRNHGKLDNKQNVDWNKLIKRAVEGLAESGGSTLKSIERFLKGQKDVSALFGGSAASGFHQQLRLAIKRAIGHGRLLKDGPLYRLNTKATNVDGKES
AATTTTAC: 0.0693
GAAACCTC: -0.0622
GCGCAATA: 0.235
GAATCAAC: 0.0595
AGTGAGGG: -0.121
AGCTGAAG: -0.106
GACGCGCC: 0.297
CCCATCGC: 0.106
CGCGGATA: 0.267
CGGCCCAA: 0.148
GACAAGTA: -0.077
CTGACTGC: -0.0131
CGGCTGTC: 0.155
ACTTTTGA: 0.0346
AAATGTCG: 4.5e-05
AGCTAGAA: -0.172
ATGGTGCC: -0.0863
GCGATTTA: 0.137
GCGGAACC: 0.267
GGAGGAGA: -0.128
CTAAGATC: 0.102
CCTCGCTC: 0.081
AGCGACCA: -0.0364
GGCATGCC: 0.157
GGTGTAGA: -0.141

Study 3 — technique: RNA Bind-n-Seq; molecule type: RNA; sample: in vitro; tested at: 365 nM; reference: no-protein control; reading: higher = stronger binding; measurement: RBNS enrichment (R)
Target: RNA binding protein fox-1 homolog 2, RRM domain, GST-SBP tag (RBFOX2, Homo sapiens, UniProt O43251-10, residues 100-194)
Notes: natural RNA segment, single round, ends assumed
Shared flanks, not repeated: GGGAGUUCUACAGUCCGACGAUC … UGGAAUUCUCGGGUGCCAA
Residues (chain): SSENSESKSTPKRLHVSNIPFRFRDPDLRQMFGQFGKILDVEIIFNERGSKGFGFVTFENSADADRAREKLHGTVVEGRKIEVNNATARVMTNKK
UCCUUGCUUCAGAAUUGAAAUGGAAGUGGGGGUGUCCCUACUCUGUAGAAUCUGGGACUGGGCAAAUGUUUGUGUGGCCUCCUUAAACUAGCUGUUAUGUUAUGAUUUUA: 1.55
UUACAUAUUCUUUCACUUGUAUGUACAGAGAGGUUUUCUGAAUAUUUAUUUUAAGGGUUAAAUCACUUUUGCUUGUGUUUAUUACUGCUUGAGGUUGAGCCUUUUUGAGU: 0.496
ACCAAAGGCUCCUUCCAGGAGCGCGCCAGCAAGCCUUACUGCCAGCCUUGCUUCCUGAAGCUCUUCGGCUGACCUCCUCUUGGGAUCAGAGAUCUCCAAAACUAAGCCUU: 0.137
AGGCGUCUGCAGUGCCCAGGGUGCUCAGGACCACCGGGGUCUGUCCUGGGGGAGGCAGGGGUUGGCAGACCCUUGCCUGCGUGGUGCCGUCCUGCUCAUGUGGUAGGCUA: 0.593
GUAAAGUUGUAUGUGCUGUUGUGUAAGUGUAACACUGUUUUUCUCUUGCAUGAAAUAGAUUUACUCUGCCAAUUUUAUCCAUGUUCUUGCUAAGUCUAUUGAUGAUAUGA: 3.32
AGAAAAACAUGAAGCUUGCCCCUCGAGGGAUCUACUCCUGUUUUUCCCGUCAUCUGUUGGCUUCAGGAGGACUGCCAUAAAGUCCCAUUGACAUUUACUCUUAUGUCUUU: 0.216
UUGACUGAGUGCUUUGACAGUUUGAGACUUCACCAAGUAUAGUAGAAAAACAAAUGGCCUCAACUUGAUCUUACCUGAGUAACCAAGGCUGCUUUUGCUUUGGGUACAGC: 0.31
ACGAGGACAGGACCGUGAGAGUCCCCAUGAUGUCAGAUCCUAAGGCCAUCUUACGAUACGGCUUGGACUCUGAUCUCAACUGCAAGAUUGCCCAGCUGCCCUUGACAGGA: 1.12

Study 4 — technique: RNA Bind-n-Seq; molecule type: RNA; sample: in vitro; tested at: 200 nM; notes: whole 134-nt RNA, ends assumed; together with: 150 mM LiCl; reference: input library; reading: higher = stronger binding; measurement: log2 enrichment; all molecules: 7-deaza-guanosine replaces G
Target: Fragile X messenger ribonucleoprotein 1, C-terminal low-complexity region (Fmr1, Mus musculus, UniProt P35922)
Shared flanks, not repeated: GGGAGUUCUACAGUCCGACGAUC … UGGAAUUCUCGGGUGUCAAGG
UCUCAGCACCCUCGUGAAACUGGACAAGAAGCCAGUGGAGACCAACGGUCCUGAUGCCAAUCACGAGUACAGUACAAGCAGCCAGCAUAU: -0.488
CUCAAGUCCUGUGCUACACAUCGUAUGUACCGAAUCGGGCCGGCCGGGCCGGGAAAGUAUUAUGUUACGCCGUUCGGAUCUGCACUUCCA: 0.877
UUACGAUUAUAUCACCCGGACACACAUCAUGCUUAAGAUUCAACUGGGAGCAUACCAGGGAUGCUCUCUAACGUAAUCAAGGGAAGGUUC: -1.42
CUGUGCUACACAUCGUAUGUACCGAAUCGGGGCCCCCCCGGGGCCCCCCCGGCCCCCCCGGAAAGUAUUAUGUUACGCCGUUCGGAUCUG: 0.173
UUCCCUGGUGUGAUUCCGUCCUGCGCGGUUGUUCUCUGGAGCAGCGUUCUUUUAUCUCCGUCCGCCUUCUCUCCUACCUAAGUGCGUGCC: 1.46
UUUCCAAGAAGUGCACUGAAAAUGACAUCCGAGUCAUGUUCUCUUCGUUUGGACAGAUUGAAGAAUGCCGGAUAUUGCGGGGACCUGAUG: -1.28
AAGUCCUGUGCUACACAUCGUAUGUACCGAAUCGGGUGGGUUUUUUUGGGUUUGGGAAAGUAUUAUGUUACGCCGUUCGGAUCUGCACUU: -1.57
GUCCUGUGCUACACAUCGUAUGUACCGAAUCGGGGAAAAAAAGGGGUGGGGAAAGGGGAAAGUAUUAUGUUACGCCGUUCGGAUCUGCAC: 0.181

A few entries again (study 1):
2'F-ANA at 1 5 10 11 13: 57.4 a.u.
2'F-ANA at 1 3 5 6 7 9 10 11 14: 50 a.u.
2'F-ANA at 1 3 5 7 8 11 12 15: 126 a.u.
2'F-ANA at 1 2 6 7 8 12 15: 394 a.u.
2'F-ANA at 2 6 7 8 10 11 12 15: 133 a.u.
